Earlier results as cited in several papers.
Lines come from different studies, so protocols differ.
UniProt P49720, sequence (whole entry, looked up): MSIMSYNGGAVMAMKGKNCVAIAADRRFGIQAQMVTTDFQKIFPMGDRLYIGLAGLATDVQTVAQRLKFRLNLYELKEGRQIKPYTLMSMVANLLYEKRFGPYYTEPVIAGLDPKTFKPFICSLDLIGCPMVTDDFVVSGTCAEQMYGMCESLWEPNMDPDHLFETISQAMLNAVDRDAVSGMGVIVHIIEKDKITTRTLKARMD
UniProt P20618, sequence (whole entry, looked up): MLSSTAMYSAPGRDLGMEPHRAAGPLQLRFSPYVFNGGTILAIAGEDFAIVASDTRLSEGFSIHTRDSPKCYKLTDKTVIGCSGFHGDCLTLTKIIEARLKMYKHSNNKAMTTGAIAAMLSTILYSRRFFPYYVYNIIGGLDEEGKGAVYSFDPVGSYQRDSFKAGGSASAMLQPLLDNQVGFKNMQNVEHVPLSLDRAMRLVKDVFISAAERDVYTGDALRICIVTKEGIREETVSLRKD
UniProt P28074, sequence (whole entry, looked up): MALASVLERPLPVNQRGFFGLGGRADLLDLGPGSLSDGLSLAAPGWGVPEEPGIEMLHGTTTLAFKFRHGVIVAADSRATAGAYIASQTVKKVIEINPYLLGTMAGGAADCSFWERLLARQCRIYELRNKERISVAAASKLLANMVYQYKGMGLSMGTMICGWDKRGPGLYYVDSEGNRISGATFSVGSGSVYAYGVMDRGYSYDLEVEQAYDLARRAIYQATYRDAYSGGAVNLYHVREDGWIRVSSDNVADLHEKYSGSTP
UniProt P10632, sequence (whole entry, looked up): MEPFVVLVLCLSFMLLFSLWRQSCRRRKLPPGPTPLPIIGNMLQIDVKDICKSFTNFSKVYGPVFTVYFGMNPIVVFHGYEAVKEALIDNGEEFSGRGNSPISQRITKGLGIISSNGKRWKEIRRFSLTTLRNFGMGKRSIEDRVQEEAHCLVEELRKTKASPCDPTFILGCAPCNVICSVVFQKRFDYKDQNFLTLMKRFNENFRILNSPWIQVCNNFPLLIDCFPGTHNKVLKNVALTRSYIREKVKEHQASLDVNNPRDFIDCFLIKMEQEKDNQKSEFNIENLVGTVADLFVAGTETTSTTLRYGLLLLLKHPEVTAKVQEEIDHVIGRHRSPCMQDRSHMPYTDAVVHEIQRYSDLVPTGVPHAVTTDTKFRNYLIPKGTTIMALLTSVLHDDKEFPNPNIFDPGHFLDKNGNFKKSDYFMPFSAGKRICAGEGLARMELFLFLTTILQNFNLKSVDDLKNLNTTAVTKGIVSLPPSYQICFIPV
UniProt P11229, sequence (whole entry, looked up): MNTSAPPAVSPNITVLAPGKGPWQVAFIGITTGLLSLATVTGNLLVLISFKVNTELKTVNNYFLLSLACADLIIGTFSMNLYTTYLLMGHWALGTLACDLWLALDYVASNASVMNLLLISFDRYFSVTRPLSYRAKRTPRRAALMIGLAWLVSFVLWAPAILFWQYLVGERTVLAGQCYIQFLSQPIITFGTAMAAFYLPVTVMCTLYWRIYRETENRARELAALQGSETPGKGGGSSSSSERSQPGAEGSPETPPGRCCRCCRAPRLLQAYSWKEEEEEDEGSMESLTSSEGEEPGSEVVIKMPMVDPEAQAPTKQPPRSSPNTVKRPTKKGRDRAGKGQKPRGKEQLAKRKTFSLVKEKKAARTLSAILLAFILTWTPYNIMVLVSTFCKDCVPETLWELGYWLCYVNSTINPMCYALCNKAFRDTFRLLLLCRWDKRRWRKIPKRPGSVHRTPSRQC
UniProt O76083, sequence (whole entry, looked up): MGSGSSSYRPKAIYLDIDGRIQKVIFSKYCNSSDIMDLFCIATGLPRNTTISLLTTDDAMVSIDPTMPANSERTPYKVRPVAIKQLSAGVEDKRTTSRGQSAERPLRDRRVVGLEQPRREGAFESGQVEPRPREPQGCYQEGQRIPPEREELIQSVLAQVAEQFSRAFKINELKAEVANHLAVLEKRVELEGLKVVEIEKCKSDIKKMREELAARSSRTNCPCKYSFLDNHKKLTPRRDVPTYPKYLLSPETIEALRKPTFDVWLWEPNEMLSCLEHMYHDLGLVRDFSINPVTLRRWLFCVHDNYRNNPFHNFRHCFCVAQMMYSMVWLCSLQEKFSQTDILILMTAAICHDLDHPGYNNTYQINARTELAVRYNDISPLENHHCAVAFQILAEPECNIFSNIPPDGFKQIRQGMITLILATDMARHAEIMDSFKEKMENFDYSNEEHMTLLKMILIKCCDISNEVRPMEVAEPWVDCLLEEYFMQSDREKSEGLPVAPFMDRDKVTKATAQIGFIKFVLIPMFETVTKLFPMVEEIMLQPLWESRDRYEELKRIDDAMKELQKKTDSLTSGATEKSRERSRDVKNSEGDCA
UniProt P11712, sequence (whole entry, looked up): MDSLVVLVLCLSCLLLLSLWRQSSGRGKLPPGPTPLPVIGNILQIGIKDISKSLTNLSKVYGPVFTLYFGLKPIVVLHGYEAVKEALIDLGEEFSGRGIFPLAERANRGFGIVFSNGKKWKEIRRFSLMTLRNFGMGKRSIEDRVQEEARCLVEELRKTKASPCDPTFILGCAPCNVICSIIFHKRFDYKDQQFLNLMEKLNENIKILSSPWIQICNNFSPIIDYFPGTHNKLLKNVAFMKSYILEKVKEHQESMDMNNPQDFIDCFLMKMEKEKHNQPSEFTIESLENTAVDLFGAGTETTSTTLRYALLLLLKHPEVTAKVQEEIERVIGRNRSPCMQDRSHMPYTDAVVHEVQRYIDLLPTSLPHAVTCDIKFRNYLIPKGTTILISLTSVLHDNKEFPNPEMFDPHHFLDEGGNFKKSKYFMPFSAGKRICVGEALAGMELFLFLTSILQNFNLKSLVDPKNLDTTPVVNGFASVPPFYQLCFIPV
UniProt Q96GD4, sequence (whole entry, looked up): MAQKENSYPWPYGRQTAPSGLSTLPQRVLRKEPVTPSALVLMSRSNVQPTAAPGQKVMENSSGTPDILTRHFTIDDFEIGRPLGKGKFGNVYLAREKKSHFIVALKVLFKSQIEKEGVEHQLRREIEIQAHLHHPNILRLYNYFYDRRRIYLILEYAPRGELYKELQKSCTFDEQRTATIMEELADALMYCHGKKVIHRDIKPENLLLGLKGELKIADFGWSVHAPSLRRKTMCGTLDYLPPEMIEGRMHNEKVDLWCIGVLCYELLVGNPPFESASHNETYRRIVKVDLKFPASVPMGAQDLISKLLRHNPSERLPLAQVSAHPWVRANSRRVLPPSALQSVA
UniProt P51812, sequence (whole entry, looked up): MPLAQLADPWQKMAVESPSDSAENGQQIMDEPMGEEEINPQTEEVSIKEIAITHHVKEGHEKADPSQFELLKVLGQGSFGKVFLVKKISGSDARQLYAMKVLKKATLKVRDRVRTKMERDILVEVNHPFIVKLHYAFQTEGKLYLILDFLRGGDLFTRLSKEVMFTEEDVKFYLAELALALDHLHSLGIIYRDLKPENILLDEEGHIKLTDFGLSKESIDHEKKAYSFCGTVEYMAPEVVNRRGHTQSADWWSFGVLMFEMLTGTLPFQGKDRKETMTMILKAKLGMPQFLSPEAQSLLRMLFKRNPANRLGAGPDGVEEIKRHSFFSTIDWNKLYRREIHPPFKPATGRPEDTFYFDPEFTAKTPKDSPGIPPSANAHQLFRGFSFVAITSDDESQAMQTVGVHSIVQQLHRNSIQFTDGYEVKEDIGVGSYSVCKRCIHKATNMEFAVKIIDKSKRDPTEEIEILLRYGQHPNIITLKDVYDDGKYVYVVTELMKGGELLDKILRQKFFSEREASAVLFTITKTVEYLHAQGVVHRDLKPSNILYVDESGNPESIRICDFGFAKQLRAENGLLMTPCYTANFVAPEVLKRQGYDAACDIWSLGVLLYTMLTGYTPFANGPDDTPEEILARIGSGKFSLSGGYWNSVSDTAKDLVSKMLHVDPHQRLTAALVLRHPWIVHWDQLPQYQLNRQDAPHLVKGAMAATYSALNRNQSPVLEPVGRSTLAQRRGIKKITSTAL
UniProt Q9BWU1, sequence (whole entry, looked up): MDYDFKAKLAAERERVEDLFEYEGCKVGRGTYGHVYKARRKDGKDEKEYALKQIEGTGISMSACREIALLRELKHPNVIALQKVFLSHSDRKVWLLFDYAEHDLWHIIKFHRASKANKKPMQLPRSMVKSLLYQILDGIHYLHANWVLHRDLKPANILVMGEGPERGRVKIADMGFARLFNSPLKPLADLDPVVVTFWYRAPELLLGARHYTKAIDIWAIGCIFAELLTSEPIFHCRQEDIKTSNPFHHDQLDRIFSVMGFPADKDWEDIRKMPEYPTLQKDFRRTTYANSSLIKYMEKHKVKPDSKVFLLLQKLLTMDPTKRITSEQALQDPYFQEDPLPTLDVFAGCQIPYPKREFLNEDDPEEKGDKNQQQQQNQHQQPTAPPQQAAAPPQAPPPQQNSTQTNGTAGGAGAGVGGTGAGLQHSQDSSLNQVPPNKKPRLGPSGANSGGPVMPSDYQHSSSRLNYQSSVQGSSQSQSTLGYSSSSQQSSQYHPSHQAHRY

CC1(C)S[C@@H]2[C@H](NC(=O)[C@H](N)c3ccccc3)C(=O)N2[C@H]1C(=O)O
MIC (Enterobacter cloacae; clinical isolate RKI-No_308/13): > 16 µg/mL

CC(C)NC(=O)[C@H]1CCC[C@H]1Nc1nc(Nc2ccc(C(=O)N(C)C3CCN(C)CC3)cc2)ncc1C(F)(F)F
IC50 (Aurora kinase B (AURKB, Homo sapiens, UniProt Q96GD4); kinase activity, inhibitor): 0.009 µM

Clc1ccc(COC(Cn2ccnc2)c2ccc(Cl)cc2Cl)c(Cl)c1 (centres unmarked)
IC50 (Cytochrome P450 2C9 (CYP2C9, Homo sapiens, UniProt P11712); inhibitor): 2.4 µM

Nc1cc(C(F)(F)F)c(-c2nc(N3CCOCC3)nc(N3CCOCC3)n2)cn1
remaining activity (Cyclin-dependent kinase 19 (CDK19, Homo sapiens, UniProt Q9BWU1); enzyme activity; 10 µM; baseline: untreated): 70%

CCN(CC)c1cc(C)c2cc(NC(=O)/C=C/c3ccco3)ccc2n1
IC50 (TP53-binding protein 1, tandem tudor domain (Homo sapiens, UniProt Q12888); binding; tandem tudor domain): 1.69 µM

COc1cc(N2CCC3(CCN(C)CC3)CC2)ccc1Nc1ncc(Cl)c(Nc2ccccc2P(C)(C)=O)n1
IC50 (EGFR L858R/T790M): 0.0167 µM

CC(C)(O/N=C(\C(=O)N[C@@H]1C(=O)N2C(C(=O)[O-])=C(C[n+]3ccccc3)CS[C@H]12)c1csc(N)n1)C(=O)O
MIC (Escherichia coli; clinical isolate RKI-No_462/16): ≤ 2 µg/mL

COCC(=O)N1CCC[C@H](C(=O)NCc2nc(-c3ccc(OC)cc3)cs2)C1
IC50 (PSMB1/PSMB5/PSMB3 (Homo sapiens, UniProt P20618+P28074+P49720); enzyme activity, inhibitor): > 30 µM

COc1cc(C[C@H](C)[C@H](C)Cc2ccc3c(c2)OCO3)ccc1O
IC50 (tyrosinase; inhibitor): 30 µM

COc1ccc(CNc2c(CO)cnc3c(C4CC4)cc(C#N)cc23)cc1Cl
IC50 (High affinity cGMP-specific 3',5'-cyclic phosphodiesterase 9A (PDE9A, Homo sapiens, UniProt O76083)): > 10 µM

N=C(N)c1ccc(N=Nc2c(O)ccc3cc(O)ccc23)cc1
IC50 (Ribosomal protein S6 kinase alpha-3 (RPS6KA3, Homo sapiens, UniProt P51812); enzyme activity, inhibitor): 1 µM

O=c1c(O)c(-c2ccc(O)c(O)c2)oc2cc(O)cc(O)c12
IC50 (sortase A, Staphylococcus aureus; inhibitor): 157 µM

Cc1cc(-c2nc3cnc(C4CCOCC4)cc3n2[C@@H](C)c2ccccc2)nn(C)c1=O
IC50 (Bromodomain-containing protein 4, BD1 (BRD4, Homo sapiens, UniProt O60885); biochemical; bromodomain 1): 0.008 µM

Cc1ccccc1NC(=O)CN1C(=O)SC(=CC2CCCN2c2cccc(C(=O)O)c2)C1=O (centres unmarked)
IC50 (KEAP1 NRF2-binding domain): 10.4 µM

CN(C)CCC=C1c2ccccc2CCc2ccccc21
IC50 (sigma 1 receptor): 0.287 µM

C[C@@]12C(=O)OC(=O)[C@]1(C)[C@H]1CC[C@@H]2O1
IC50 (protein phosphatase 1; enzyme activity, inhibitor): 0.473 µM

O=C[C@H](OC(=O)c1cc(O)c(O)c(O)c1)[C@@H](OC(=O)c1cc(O)c(O)c(O)c1)[C@H](OC(=O)c1cc(O)c(O)c(O)c1)[C@H](O)COC(=O)c1cc(O)c(O)c(O)c1
IC50 (tyrosinase; inhibitor): 54 µM

C[C@@]12CCC(=O)c3coc(c31)C(=O)c1cc3c(O)ccc(O)c3cc12
IC50 (sortase A (Staphylococcus aureus); inhibitor; Staphylococcus aureus): 13.9 µM

C#CCOc1ccccc1CCCCCC(=O)NS(C)(=O)=O
IC50 (Cytochrome P450 2C8 (CYP2C8, Homo sapiens, UniProt P10632); inhibitor): 15 µM

OC(Cn1cncn1)(Cn1cncn1)c1ccc(F)cc1F
IC50 (CYP17A1 lyase; androgen synthesis): 114 to 209 µM

C[N+]1(C)CCC(OC(=O)C(c2ccccc2)c2ccccc2)CC1
IC50 (Muscarinic acetylcholine receptor M1 (CHRM1, Homo sapiens, UniProt P11229)): 0.0045 µM

Oc1ccc(/C=C/c2cc(O)cc(O)c2)cc1
IC50 (α-amylase (Aspergillus oryzae); enzyme activity, inhibitor; together with: 2-chloro-4-nitrophenyl α-D-maltotrioside): 134 µM

Oc1ccc(O)cc1
IC50 (tyrosinase; inhibitor): 25.9 µM

O=C(O)CNC(=O)C(CS)Cc1ccccc1 (centres unmarked)
IC50 (Aminopeptidase N (ANPEP, Homo sapiens, UniProt P15144)): > 100 µM

COc1cc(/C=C/C(=O)NCCc2c[nH]c3ccc(O)cc23)ccc1O
IC50 (tyrosinase; inhibitor): 23 µM

CC(C)C[C@H](NC(=O)[C@H]1O[C@@H]1C(=O)O)C(=O)NCCCCN=C(N)N (relative stereo)
IC50 (Cathepsin B (CTSB, Homo sapiens, UniProt P07858); literature value): 0.055 µM
